Results of several laboratories.
A part holds a random share of what one study measured. Several values in a cell are separate wells, animals, samples, runs or records.
Sequence of UniProt P49674 (whole entry, looked up): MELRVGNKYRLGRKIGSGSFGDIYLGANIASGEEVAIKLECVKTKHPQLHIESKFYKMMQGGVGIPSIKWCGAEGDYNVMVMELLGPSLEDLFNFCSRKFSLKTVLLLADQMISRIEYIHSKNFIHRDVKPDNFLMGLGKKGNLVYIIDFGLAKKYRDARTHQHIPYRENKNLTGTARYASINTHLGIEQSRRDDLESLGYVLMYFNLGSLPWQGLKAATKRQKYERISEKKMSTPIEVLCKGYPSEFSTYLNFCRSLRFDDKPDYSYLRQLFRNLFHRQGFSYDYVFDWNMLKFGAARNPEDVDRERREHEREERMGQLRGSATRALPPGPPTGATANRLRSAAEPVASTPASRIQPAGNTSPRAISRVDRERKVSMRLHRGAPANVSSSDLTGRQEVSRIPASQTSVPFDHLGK
Sequence of UniProt Q8N568 (whole entry, looked up): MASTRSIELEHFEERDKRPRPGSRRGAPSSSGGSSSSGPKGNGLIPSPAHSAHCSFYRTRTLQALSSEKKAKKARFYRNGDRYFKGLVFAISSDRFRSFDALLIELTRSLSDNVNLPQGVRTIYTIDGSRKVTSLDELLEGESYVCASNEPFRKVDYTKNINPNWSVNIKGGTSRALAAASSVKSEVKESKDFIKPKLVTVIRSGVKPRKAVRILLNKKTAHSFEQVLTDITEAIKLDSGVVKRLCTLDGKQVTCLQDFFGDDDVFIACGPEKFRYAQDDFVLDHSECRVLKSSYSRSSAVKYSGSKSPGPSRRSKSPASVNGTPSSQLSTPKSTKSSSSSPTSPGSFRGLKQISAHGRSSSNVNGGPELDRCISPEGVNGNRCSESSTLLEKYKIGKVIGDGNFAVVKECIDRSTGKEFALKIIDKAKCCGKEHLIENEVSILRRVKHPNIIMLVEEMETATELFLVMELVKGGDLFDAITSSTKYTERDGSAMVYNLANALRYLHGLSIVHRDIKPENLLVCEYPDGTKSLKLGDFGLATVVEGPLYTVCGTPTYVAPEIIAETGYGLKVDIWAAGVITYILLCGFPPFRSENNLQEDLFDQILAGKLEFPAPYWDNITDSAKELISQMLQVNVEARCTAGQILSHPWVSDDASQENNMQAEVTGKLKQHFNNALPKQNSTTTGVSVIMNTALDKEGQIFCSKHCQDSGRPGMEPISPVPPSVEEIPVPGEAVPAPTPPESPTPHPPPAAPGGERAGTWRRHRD
Sequence of UniProt Q9UBE8 (whole entry, looked up): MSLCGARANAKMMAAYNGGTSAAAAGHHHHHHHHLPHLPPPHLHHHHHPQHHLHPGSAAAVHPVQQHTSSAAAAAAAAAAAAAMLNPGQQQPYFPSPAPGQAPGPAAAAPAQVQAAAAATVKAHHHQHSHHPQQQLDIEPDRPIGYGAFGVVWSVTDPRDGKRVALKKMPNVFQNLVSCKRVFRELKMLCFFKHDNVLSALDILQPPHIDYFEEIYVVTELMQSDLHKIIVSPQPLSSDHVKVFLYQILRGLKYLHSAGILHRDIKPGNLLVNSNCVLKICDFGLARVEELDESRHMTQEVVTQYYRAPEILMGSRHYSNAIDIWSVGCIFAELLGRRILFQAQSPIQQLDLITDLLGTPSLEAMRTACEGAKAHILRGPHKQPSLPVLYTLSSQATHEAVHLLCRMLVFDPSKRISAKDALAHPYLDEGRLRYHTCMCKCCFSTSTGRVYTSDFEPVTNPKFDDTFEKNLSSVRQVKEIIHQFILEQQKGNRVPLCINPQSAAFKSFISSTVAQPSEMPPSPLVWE
Sequence of UniProt P09619 (whole entry, looked up): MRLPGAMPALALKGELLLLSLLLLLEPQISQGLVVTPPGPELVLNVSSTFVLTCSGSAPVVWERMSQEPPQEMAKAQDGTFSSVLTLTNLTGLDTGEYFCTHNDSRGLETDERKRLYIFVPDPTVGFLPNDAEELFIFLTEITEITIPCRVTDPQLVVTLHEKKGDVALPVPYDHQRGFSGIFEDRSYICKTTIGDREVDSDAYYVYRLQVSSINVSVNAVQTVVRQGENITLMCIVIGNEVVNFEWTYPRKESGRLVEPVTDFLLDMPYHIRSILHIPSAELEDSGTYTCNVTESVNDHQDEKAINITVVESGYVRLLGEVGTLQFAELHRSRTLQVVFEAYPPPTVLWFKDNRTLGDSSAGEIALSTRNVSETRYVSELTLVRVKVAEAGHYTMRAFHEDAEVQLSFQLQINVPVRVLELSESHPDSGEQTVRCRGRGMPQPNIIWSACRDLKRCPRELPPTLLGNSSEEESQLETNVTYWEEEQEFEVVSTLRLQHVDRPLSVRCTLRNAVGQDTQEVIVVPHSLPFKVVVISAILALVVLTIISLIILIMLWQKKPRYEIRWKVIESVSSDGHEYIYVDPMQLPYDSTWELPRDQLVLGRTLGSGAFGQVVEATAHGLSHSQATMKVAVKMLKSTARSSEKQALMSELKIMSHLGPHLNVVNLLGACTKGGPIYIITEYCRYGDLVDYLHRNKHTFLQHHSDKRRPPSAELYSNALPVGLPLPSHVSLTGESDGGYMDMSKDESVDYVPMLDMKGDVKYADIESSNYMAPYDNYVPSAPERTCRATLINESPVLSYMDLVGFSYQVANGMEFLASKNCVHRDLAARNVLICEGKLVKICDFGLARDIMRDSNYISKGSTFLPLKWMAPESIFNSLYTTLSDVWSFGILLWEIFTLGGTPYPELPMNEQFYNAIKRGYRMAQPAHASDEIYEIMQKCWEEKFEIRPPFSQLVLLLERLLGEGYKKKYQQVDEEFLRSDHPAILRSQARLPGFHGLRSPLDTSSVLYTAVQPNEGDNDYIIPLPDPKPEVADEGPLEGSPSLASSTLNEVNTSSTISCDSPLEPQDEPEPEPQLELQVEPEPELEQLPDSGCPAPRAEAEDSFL
Sequence of UniProt Q9HC98 (whole entry, looked up): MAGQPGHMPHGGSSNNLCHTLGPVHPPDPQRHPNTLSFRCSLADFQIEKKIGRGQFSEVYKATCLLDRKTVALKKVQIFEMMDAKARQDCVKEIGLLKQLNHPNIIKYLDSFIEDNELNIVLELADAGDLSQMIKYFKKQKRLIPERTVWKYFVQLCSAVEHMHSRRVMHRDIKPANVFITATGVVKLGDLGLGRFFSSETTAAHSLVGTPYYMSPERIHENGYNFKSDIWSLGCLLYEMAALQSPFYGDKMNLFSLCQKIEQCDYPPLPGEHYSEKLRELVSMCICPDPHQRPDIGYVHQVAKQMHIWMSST

Set 1
Target: Homeodomain-interacting protein kinase 2 (HIPK2, Homo sapiens, UniProt Q9H2X6)
Sequence of UniProt Q9H2X6 (whole entry, looked up): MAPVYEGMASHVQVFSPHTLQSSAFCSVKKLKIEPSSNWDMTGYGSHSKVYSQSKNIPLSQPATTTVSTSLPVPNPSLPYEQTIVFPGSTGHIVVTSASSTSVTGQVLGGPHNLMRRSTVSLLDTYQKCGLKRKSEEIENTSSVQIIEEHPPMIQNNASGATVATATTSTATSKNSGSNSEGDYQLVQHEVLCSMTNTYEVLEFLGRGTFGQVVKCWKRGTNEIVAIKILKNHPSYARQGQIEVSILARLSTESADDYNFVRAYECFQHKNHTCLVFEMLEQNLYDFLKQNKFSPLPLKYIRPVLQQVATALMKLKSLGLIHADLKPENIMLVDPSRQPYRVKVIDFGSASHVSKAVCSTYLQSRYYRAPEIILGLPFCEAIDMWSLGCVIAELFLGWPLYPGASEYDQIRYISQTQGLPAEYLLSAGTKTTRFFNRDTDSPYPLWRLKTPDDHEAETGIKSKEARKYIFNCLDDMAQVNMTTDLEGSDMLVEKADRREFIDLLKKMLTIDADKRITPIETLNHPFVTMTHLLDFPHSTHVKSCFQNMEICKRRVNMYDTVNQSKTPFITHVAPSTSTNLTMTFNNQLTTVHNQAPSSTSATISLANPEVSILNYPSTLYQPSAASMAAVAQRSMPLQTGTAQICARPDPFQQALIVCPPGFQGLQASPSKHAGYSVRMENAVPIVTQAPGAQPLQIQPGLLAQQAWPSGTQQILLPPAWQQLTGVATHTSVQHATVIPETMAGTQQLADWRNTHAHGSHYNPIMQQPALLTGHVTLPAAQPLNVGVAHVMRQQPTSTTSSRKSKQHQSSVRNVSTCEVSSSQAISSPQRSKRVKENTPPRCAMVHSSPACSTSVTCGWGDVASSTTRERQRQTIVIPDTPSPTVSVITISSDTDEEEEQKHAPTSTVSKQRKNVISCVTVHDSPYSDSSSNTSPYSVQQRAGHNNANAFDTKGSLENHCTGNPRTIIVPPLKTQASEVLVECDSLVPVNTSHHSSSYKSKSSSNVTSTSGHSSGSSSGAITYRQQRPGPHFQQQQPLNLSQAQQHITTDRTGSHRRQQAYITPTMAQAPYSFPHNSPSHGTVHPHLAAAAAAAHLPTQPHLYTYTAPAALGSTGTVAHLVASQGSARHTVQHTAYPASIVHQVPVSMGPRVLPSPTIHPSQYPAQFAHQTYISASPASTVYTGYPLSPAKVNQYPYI
Effect on: enzyme activity
Action: inhibitor
Tested at: 0.5 µM
Relative to: control
| SMILES | remaining activity [%] |
| --- | --- |
| Nc1[nH]nc2nc3ccccc3nc12 | 95.9 |
| O=c1c2ccccc2[nH]c(=S)n1CCN1CCC(=C(c2ccc(F)cc2)c2ccc(F)cc2)CC1 | 105 |
| O=C(O)c1ccc2c3c1cccc3c(=O)n1c3ccccc3nc21 | 101 |
| COc1cc2nccc(Oc3ccc(NC(=S)NC(=O)c4ccccc4C)cc3)c2cc1OC | 99.2 |
| OCC(O)CCON=C1C(c2c(O)[nH]c3ccccc23)=Nc2ccccc21 (stereo not shown) | 97.6 |
| Nc1ccc2ncnc(NCCc3ccc(Oc4ccccc4)cc3)c2c1 | 110 |
| COc1ccc(CNC(=O)Nc2ncc([N+](=O)[O-])s2)cc1 | 103 |
| COc1ccc(C(=O)Nc2sc3c(c2C(N)=O)CCCC3)cc1OC | 107 |
| Nc1ncnc2n[nH]c(Nc3ccc(F)cc3)c12 | 106 |
| C#Cc1cccc(Nc2ncnc3cc(OCCOC)c(OCCOC)cc23)c1 | 99.3 |
| O=C(CCCc1ccc(-c2ccccc2F)cc1)Nc1ccc(O)cc1 | 112 |
| COc1cc2ncnc(Nc3ccc(F)c(Cl)c3)c2cc1OCCCN1CCOCC1 | 99.7 |
| Cc1ccc(Nc2nccc(N(C)c3ccc4c(C)n(C)nc4c3)n2)cc1S(N)(=O)=O | 105 |

Set 2
Target: Beta-1 adrenergic receptor (ADRB1, Homo sapiens, UniProt P08588)
Sequence of UniProt P08588 (whole entry, looked up): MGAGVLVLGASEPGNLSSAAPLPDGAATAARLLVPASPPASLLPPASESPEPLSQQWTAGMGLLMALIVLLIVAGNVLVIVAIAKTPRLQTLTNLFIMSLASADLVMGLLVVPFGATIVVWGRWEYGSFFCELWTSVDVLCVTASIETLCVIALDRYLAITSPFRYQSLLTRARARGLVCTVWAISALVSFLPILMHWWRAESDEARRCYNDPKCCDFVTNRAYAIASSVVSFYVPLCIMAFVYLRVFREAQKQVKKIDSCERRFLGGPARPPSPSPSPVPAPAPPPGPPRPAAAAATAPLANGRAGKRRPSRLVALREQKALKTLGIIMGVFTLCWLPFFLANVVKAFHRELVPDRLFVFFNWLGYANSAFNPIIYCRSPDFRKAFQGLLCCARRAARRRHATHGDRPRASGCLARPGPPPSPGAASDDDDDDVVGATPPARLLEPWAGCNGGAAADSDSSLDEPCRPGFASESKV
Action: agonist
| Structure (SMILES) | EC50 [µM] |
| --- | --- |
| CC1(C)Cc2c(c(N3CCOCC3)nc3sc(C(=O)Nc4cccc(Cl)c4)c(N)c23)CO1 | ≥ 100 |
| CS(=O)(=O)N(CC(O)Cn1c2ccccc2c2ccccc21)c1ccc(F)cc1 (stereo not shown) | ≥ 100 |
| COc1ccc2c(CSc3nncn3-c3ccccc3)cc(=O)oc2c1 | ≥ 100 |
| COCCN1CCOc2nc(-c3cccc(N(C)C)c3)ncc2C1=O | ≥ 100 |
| Cc1cc(C)n(-c2ccc(=O)n(C3CCN(c4nc5ccccc5cc4C#N)CC3)n2)n1 | ≥ 100 |
| CC(C)c1noc(-c2ccc(N(C)CC(O)c3ccccc3)nc2)n1 (stereo not shown) | ≥ 100 |
| Fc1ccc(-c2nnc3ccc(Nc4ccc(N5CCOCC5)cc4)nn23)nc1 | ≥ 100 |
| O=C(Nc1ccccc1)Nc1ccc([C@@H](O)[C@H]2COCC(=O)N2Cc2ccc(F)cc2)cc1 | ≥ 100 |
| CC(=O)Oc1ccc2c(c1)Oc1cc(OC(C)=O)ccc1C21OC(=O)c2cc(C(=O)O)ccc21 | ≥ 100 |
| Cc1ccc(-c2cc(C(=O)Nc3nnc(C)s3)c3ccccc3n2)s1 | ≥ 100 |
| CCOc1cc(N2CC=C(c3c[nH]c4ccc(OC)cc34)CC2)ncn1 | ≥ 100 |

Set 3
Structure (SMILES): Cc1c(NC(=O)c2cc(C(N)=O)nc3cc(F)ccc23)c(C(F)(F)F)nn1Cc1ccc(C#N)cc1
Tested at: 1 µM
| target | effect on | method | remaining binding [%] |
| --- | --- | --- | --- |
| DCLK2 (Homo sapiens, UniProt Q8N568) | cell-free assay | competition with immobilised ligand | 82 |
| FLT3 (Homo sapiens, UniProt P36888, ITD) | cell-free assay | competition with immobilised ligand | 95 |
| Aurora kinase B (AURKB, Homo sapiens, UniProt Q96GD4) | cell-free assay | competition with immobilised ligand | 72 |
| STK39 (Homo sapiens, UniProt Q9UEW8) | cell-free assay | competition with immobilised ligand | 94 |
| CAMK2G (Homo sapiens, UniProt Q13555) | binding | competition with immobilised ligand | 86 |
| PDGFRB (Homo sapiens, UniProt P09619) | cell-free assay | competition with immobilised ligand | 87 |
| PAK1 (Homo sapiens, UniProt Q13153) | cell-free assay | competition with immobilised ligand | 100 |
| EPHA1 (Homo sapiens, UniProt P21709) | cell-free assay | competition with immobilised ligand | 74 |
| FLT3 (Homo sapiens, UniProt P36888, D835V) | cell-free assay | competition with immobilised ligand | 100 |
| ALK (Homo sapiens, UniProt Q9UM73, C1156Y) | cell-free assay | competition with immobilised ligand | 98 |
| FLT3 (Homo sapiens, UniProt P36888, D835Y) | cell-free assay | competition with immobilised ligand | 92 |
| INSRR (Homo sapiens, UniProt P14616) | cell-free assay | competition with immobilised ligand | 92 |
| NLK (Homo sapiens, UniProt Q9UBE8) | binding | competition with immobilised ligand | 100 |
| DSTYK (Homo sapiens, UniProt Q6XUX3) | cell-free assay | competition with immobilised ligand | 78 |
| FLT3 (Homo sapiens, UniProt P36888, K663Q) | cell-free assay | competition with immobilised ligand | 93 |
| SIK1 (Homo sapiens, UniProt P57059) | – | competition binding | 100 |
| VRK2 (Homo sapiens, UniProt Q86Y07) | cell-free assay | competition with immobilised ligand | 72 |
| IRAK3 (Homo sapiens, UniProt Q9Y616) | cell-free assay | competition with immobilised ligand | 94 |
| CDK11A (Homo sapiens, UniProt Q9UQ88) | binding | competition with immobilised ligand | 100 |
| EGFR (Homo sapiens, UniProt P00533, del747-752/P753S) | cell-free assay | competition with immobilised ligand | 61 |
| CSNK1E (Homo sapiens, UniProt P49674) | cell-free assay | competition with immobilised ligand | 100 |
| WNK4 (Homo sapiens, UniProt Q96J92) | cell-free assay | competition with immobilised ligand | 0 |
| MYLK2 (Homo sapiens, UniProt Q9H1R3) | binding | competition with immobilised ligand | 90 |
| NEK6 (Homo sapiens, UniProt Q9HC98) | cell-free assay | competition with immobilised ligand | 100 |
| MAPKAPK5 (Homo sapiens, UniProt Q8IW41) | cell-free assay | competition with immobilised ligand | 84 |

Set 4
SMILES: CC(C)S(=O)(=O)c1ccc2nccc(Nc3ccc4scnc4c3)c2c1
Cell line: L929
Effect on: caspase activity
Method: Ac-DEVD-pNA absorbance
Direction: higher = more activity
| tested at | time | caspase-3 activity |
| --- | --- | --- |
| 5 µM | 3 h | 0.101 a.u. and 0.104 a.u. and 0.172 a.u. and 0.111 a.u. |
| 10 µM | 0 h | -0.0035 a.u. and 0.007 a.u. and 0.018 a.u. and 0.005 a.u. |
| 5 µM | 1 h | 0.0065 a.u. and 0.016 a.u. and 0.024 a.u. and 0.011 a.u. |

A few entries again (set 3):
| target | effect on | method | remaining binding [%] |
| --- | --- | --- | --- |
| CDK11A (Homo sapiens, UniProt Q9UQ88) | binding | competition with immobilised ligand | 100 |
| IRAK3 (Homo sapiens, UniProt Q9Y616) | cell-free assay | competition with immobilised ligand | 94 |
| Aurora kinase B (AURKB, Homo sapiens, UniProt Q96GD4) | cell-free assay | competition with immobilised ligand | 72 |
| PAK1 (Homo sapiens, UniProt Q13153) | cell-free assay | competition with immobilised ligand | 100 |
| INSRR (Homo sapiens, UniProt P14616) | cell-free assay | competition with immobilised ligand | 92 |
| VRK2 (Homo sapiens, UniProt Q86Y07) | cell-free assay | competition with immobilised ligand | 72 |
| FLT3 (Homo sapiens, UniProt P36888, D835V) | cell-free assay | competition with immobilised ligand | 100 |
